{"data": "Published values collected from several papers", "note": "Lines come from different studies, so protocols differ. Numbers after ± are the reported error."}
{"Compound": "N#Cc1ccc(-c2ccc(-c3cccs3)o2)cc1F", "target or system": "Salmonella enterica", "test": "sodium azide mutagenicity", "system": "TA1535", "setting": "10 µM, 48 h, with: sodium azide 2 µg/plate co-exposure", "measurement": "inhibition", "value": "83%"}
{"Compound": "CP(=O)(O)CCC(N)C(=O)O (stereo not shown)", "target or system": "Ipomoea hederacea", "setting": "125 g/ha, 13 days, IPOHE, post-emergence spray", "how to read": "baseline: untreated (0%), complete kill (100%)", "measurement": "herbicidal activity", "value": "50%"}
{"Compound": "N#Cc1ccc(-c2ccc(-c3cccs3)s2)cc1F", "target or system": "Salmonella enterica", "system": "TA1535", "setting": "10 µM, 48 h, with: sodium azide after pre-exposure", "how to read": "baseline: sodium azide alone", "measurement": "mutant frequency", "value": "17%"}
{"Compound": "CCC1(c2ccccc2)C(=O)NC(=O)NC1=O", "test": "hind limb tonic extension", "system": "albino mouse, MES-induced seizure", "setting": "ip, 4.0 h", "measurement": "minimal effective dose", "value": "100 mg/kg"}
{"Compound": "N#Cc1ccc(-c2ccc(-c3ccco3)o2)cc1F", "target or system": "Salmonella enterica", "system": "TA1535", "setting": "20 µM, 48 h, with: sodium azide after pre-exposure", "how to read": "baseline: sodium azide alone", "measurement": "mutant frequency", "value": "36%"}
{"Compound": "CCC(=O)Nc1nccnc1C(=O)O", "target or system": "Mycobacterium tuberculosis variant bovis BCG", "test": "microbial growth", "system": "ATCC35734 BCG", "setting": "5 days", "measurement": "IC50", "value": "1500 µM"}
{"Compound": "O=C(O[C@@H]1Cc2c(O)cc(O)cc2O[C@@H]1c1cc(O)c(=O)c2c(O)c(O)cc([C@H]3Oc4cc(O)cc(O)c4C[C@H]3OC(=O)c3cc(O)c(O)c(O)c3)c2c1)c1cc(O)c(O)c(O)c1", "target or system": "influenza virus", "test": "viral replication", "system": "MDCK", "setting": "72 h", "measurement": "IC50", "value": "> 10 µM"}
{"Compound": "N#Cc1ccc(-c2ccc(-c3cccs3)o2)c(F)c1", "target or system": "Salmonella enterica", "system": "TA1535", "setting": "10 µM, 48 h, with: sodium azide after pre-exposure", "how to read": "baseline: sodium azide alone", "measurement": "mutant frequency", "value": "35%"}
{"Compound": "CC(C)c1ccc2c(c1)CC[C@H]1[C@](C)(CN)CCC[C@]21C", "target or system": "SBcl2", "test": "cell growth or viability, MTS", "setting": "48 h", "measurement": "IC50", "value": "4.68 µM"}
{"Compound": "CNC(C)Cc1ccc2c(c1)OCO2 (racemic)", "test": "visual analog scale, refers to: Sedated", "system": "human", "setting": "oral, 0.75 mg/kg, mean over session, unit not given", "how to read": "baseline: pre-dose baseline", "measurement": "mood rating", "value": 0.6}
{"Compound": "CCCCCc1cc(O)c2c(c1)OC(C)(C)[C@@H]1CCC(C)=C[C@@H]21", "test": "catalepsy (ring immobility)", "system": "ICR mice, female", "setting": "intraperitoneal", "measurement": "ED50", "value": "2.41 mg/kg"}
{"Compound": "CN[C@@](C)(C[18F])C(=O)O", "system": "SCID mice (SK-OV-3 xenograft)", "setting": "120 min after injection", "measurement": "tumour uptake", "value": "6.9 ± 3.3 %ID/g"}
{"Compound": "N=C(N)c1ccc(-c2ccc(-c3ccco3)o2)cc1F", "target or system": "Salmonella enterica", "system": "TA1535", "setting": "20 µM, 48 h, with: sodium azide after pre-exposure", "how to read": "baseline: sodium azide alone", "measurement": "mutant frequency", "value": "30%"}
{"Compound": "CC(=O)Nc1c(N)nc(SCC(=O)N/N=C/c2ccc([N+](=O)[O-])cc2)[nH]c1=O", "target or system": "calf thymus DNA", "test": "terbium luminescence", "setting": "24 h", "measurement": "concentration for maximal DNA damage", "value": "3 µM"}
{"Compound": "O=C(O)c1cnccn1", "target or system": "Mycobacterium tuberculosis variant bovis BCG", "test": "microbial growth", "system": "ATCC35734 BCG", "setting": "5 days", "measurement": "IC50", "value": "1000 µM"}
{"Compound": "Br.CN=c1nc(-c2ccccc2)n(-c2ccccc2)s1", "target or system": "HEK293 expressing MOR", "test": "morphine-induced cAMP overshoot, HTRF cAMP", "setting": "1 µM, with: NKH 477 25 nM", "how to read": "baseline: morphine control", "measurement": "efficacy", "value": "85%"}
{"Compound": "N#Cc1ccc(-c2ccc(-c3ccco3)o2)c(F)c1", "target or system": "Salmonella enterica", "system": "TA1535", "setting": "20 µM, 48 h, with: sodium azide after pre-exposure", "how to read": "baseline: sodium azide alone", "measurement": "mutant frequency", "value": "20%"}
{"Compound": "C[C@H](Cn1cnc2c(N)ncnc21)OCP(=O)(O)O", "target or system": "human alphaherpesvirus 2", "test": "virus production", "system": "human monocytes/macrophages", "setting": "100 µg/mL, 6 days", "measurement": "inhibition", "value": "100%"}
{"Compound": "Brc1c(Br)c(Br)c2n[nH]nc2c1Br", "target or system": "HEK293 expressing MOR", "test": "cAMP overshoot, inhibitor, HTRF cAMP", "setting": "with: morphine then naloxone", "measurement": "IC50", "value": "14.6 µM"}
{"note": "Excerpt of the above:"}
{"Compound": "CC(C)c1ccc2c(c1)CC[C@H]1[C@](C)(CN)CCC[C@]21C", "target or system": "SBcl2", "test": "cell growth or viability, MTS", "setting": "48 h", "measurement": "IC50", "value": "4.68 µM"}
{"Compound": "C[C@H](Cn1cnc2c(N)ncnc21)OCP(=O)(O)O", "target or system": "human alphaherpesvirus 2", "test": "virus production", "system": "human monocytes/macrophages", "setting": "100 µg/mL, 6 days", "measurement": "inhibition", "value": "100%"}
{"Compound": "O=C(O)c1cnccn1", "target or system": "Mycobacterium tuberculosis variant bovis BCG", "test": "microbial growth", "system": "ATCC35734 BCG", "setting": "5 days", "measurement": "IC50", "value": "1000 µM"}
